# Assay results gathered from unrelated publications.
# Compare with care: the assays were run in different laboratories. ± gives the spread as reported.
SMILES,assay,test system,setting,how to read,remaining compound [%]
CNC(=O)c1ncn2c(=O)n(C)nnc12,,PBS,"50 µM, 2 h, pH 7.4, no microsomes",relative to: time zero,93 ± 1
CC[C@H](C)[C@@H]1NC(=O)[C@H](CC(N)=O)NC(=O)[C@@H]2CCCN2C(=O)[C@@H](NC(=O)[C@H](CC(N)=O)NC(=O)[C@@H](N)CCC(N)=O)COC(=O)[C@H](CCSC)NC(=O)[C@H](Cc2c[nH]c3ccccc23)NC(=O)[C@H](CCC(N)=O)NC(=O)CNC(=O)[C@H](Cc2ccccc2)N(C)C1=O,,human plasma diluted with PBS,"0.28 mM, 30 min, pH 7.2, 37 °C",,~30
CCc1noc(CC)c1C(=O)O[C@H]1C(C)=C[C@]23C(=O)[C@@H](C=C(CO)[C@@H](O)[C@]12O)[C@H]1[C@@H](C[C@H]3C)C1(C)C,,phosphate buffer 30% acetonitrile,"100 µM, 24 h, pH 7.4, 37 °C",,~73
CSCC[C@H](NC(=O)CNC(=O)[C@H](CC(=O)O)NC(=O)[C@@H](NC(=O)[C@@H](NC(=O)[C@@H](NC(=O)CNC(=O)[C@H](CCC(=O)O)NC(=O)[C@H](CCSC)NC(=O)[C@H](CC(=O)O)NC(=O)[C@H](C)NC(=O)[C@H](C)NC(=O)[C@@H](NC(=O)[C@H](CO)NC(=O)[C@@H](N)CC(C)C)[C@@H](C)O)C(C)C)C(C)C)[C@@H](C)O)C(=O)N[C@@H](C)C(=O)N[C@@H](CO)C(=O)NCC(=O)N[C@@H](CC(C)C)C(=O)N[C@@H](CC(=O)O)C(=O)N[C@@H](CCCCN)C(=O)N[C@@H](CC(=O)O)C(=O)N[C@@H](Cc1ccc(O)cc1)C(=O)N[C@@H](CC(C)C)C(=O)N[C@@H](CCCCN)C(=O)N1CCC[C@H]1C(=O)N[C@@H](CC(=O)O)C(=O)N[C@@H](CC(=O)O)C(=O)O,LC-MS/MS,monkey serum,"10 µg/mL, 24 h, 37 °C",,45
CC(C)C[C@H](NC(=O)[C@H](Cc1ccccc1)NC(=O)CNC(=O)C/C=C(\F)[C@@H](N)Cc1ccc(O)cc1)C(=O)O,,mouse plasma,"50 µM, 4 h, 37 °C",,> 90
CC[C@@H](C)[C@@H]1NC(=O)[C@@H](Cc2ccccc2)NC(=O)[C@@H]2CCCN2C(=O)[C@H]([C@H](C)CC)NC(=O)[C@@H](Cc2ccccc2)NC(=O)[C@@H]2CCCN2C1=O,,human plasma,"2 h, 37 °C",,≥ 90
Cc1cc(O)cc(C)c1C[C@H](NC(=O)[C@H](N)CCCNC(=N)N)C(=O)N[C@@H](CCCCN)C(=O)N[C@@H](Cc1ccccc1)C(N)=O,,mouse plasma,"10 µg/mL, 24 h, 37 °C, added: H2O2 100 mM",,81.1 ± 3.6
N.N.O=C([O][Pt]([OH])([Cl])[Cl])c1ccc(P(c2ccccc2)c2ccccc2)cc1.[Cl][Au],NMR,DMSO-d6,28 days,,> 98
C[C@@H]1NC(=O)[C@H](CC(N)=O)N2C[C@H](Cc3c[nH]c4ccccc34)NC(=O)[C@H](CSCC2=O)NC(=O)[C@H](CCCNC(=N)N)NC(=O)[C@@H](Cc2ccccc2)NC(=O)[C@H](Cc2c[nH]cn2)NC(=O)[C@@H](NC(=O)[C@@H](N)Cc2ccc(O)cc2)CSSC[C@@H](C(=O)N[C@@H](Cc2ccc(O)cc2)C(N)=O)NC(=O)[C@H](Cc2ccccc2)NC1=O,LC-MS,rat serum,"10 µM, 24 h, 37 °C",,~12
C[C@H](NCc1ccc(-c2ccc(C(F)(F)F)cc2)cc1)C(N)=O,,human plasma,"1 µM, 120 min",,98
CC(C)C[C@H](NC(=O)[C@@H]1CCCN1C(=O)[C@H](Cc1ccc(F)cc1)NC(=O)CNC(=O)[C@@H](C)NC(=O)[C@@H](N)Cc1ccc(O)cc1)C(=O)N[C@@H](Cc1c[nH]c2ccccc12)C(=O)NCc1cc(C(F)(F)F)cc(C(F)(F)F)c1,,rat plasma,"0 h, 37 °C",,100
C[C@H](CCC(=O)N[C@@H](CCCCNC(=O)C(F)(F)F)C(=O)O)[C@H]1CC[C@H]2[C@@H]3[C@H](O)C[C@@H]4C[C@H](O)CC[C@]4(C)[C@H]3C[C@H](O)[C@]12C,,hNTCP-HEK cell homogenate,"5 µM, 5 min",,97.2
Cc1cnc(-c2ncn3c(=O)n(C)nnc23)o1,,PBS,"50 µM, 2 h, pH 7.4, no microsomes",relative to: time zero,95 ± 4
NC(=O)c1c(F)ccc(OCc2nc3cc(Cl)cnc3s2)c1F,,mouse plasma,"10 µM, 24 h, 37 °C",,94 ± 10.8
Cc1cc(O)cc(C)c1C[C@H](N)C(=O)N[C@H](C)C(=O)NCC(=O)N(C)[C@@H](Cc1ccccc1)C(=O)N1CCC[C@H]1C(=O)N[C@@H](CC(C)C)C(=O)N[C@@H](Cc1c[nH]c2ccccc12)C(=O)NCc1cc(C(F)(F)F)cc(C(F)(F)F)c1,,rat plasma,"0 h, 37 °C",,100
CCOC(=O)[C@@H]1Cc2c(cc([N+](=O)[O-])cc2[N+](=O)[O-])[C@H](O)[C@]12C(=O)Nc1ccc(Br)cc12,,human liver microsomes,"10 min, 37 °C",,> 90

# Some of these lines once more:
SMILES,assay,test system,setting,how to read,remaining compound [%]
Cc1cnc(-c2ncn3c(=O)n(C)nnc23)o1,,PBS,"50 µM, 2 h, pH 7.4, no microsomes",relative to: time zero,95 ± 4
C[C@@H]1NC(=O)[C@H](CC(N)=O)N2C[C@H](Cc3c[nH]c4ccccc34)NC(=O)[C@H](CSCC2=O)NC(=O)[C@H](CCCNC(=N)N)NC(=O)[C@@H](Cc2ccccc2)NC(=O)[C@H](Cc2c[nH]cn2)NC(=O)[C@@H](NC(=O)[C@@H](N)Cc2ccc(O)cc2)CSSC[C@@H](C(=O)N[C@@H](Cc2ccc(O)cc2)C(N)=O)NC(=O)[C@H](Cc2ccccc2)NC1=O,LC-MS,rat serum,"10 µM, 24 h, 37 °C",,~12
